Published values pooled from the literature.
Each line is one published result; not all experiments were run side by side. ± marks the error that the study gave. In brackets after ≈: the same amount, converted by molar mass.

SMILES = c1ccc(CN2CCOCCOCCN(CCCCCCCCCCCCCCN3CCOCCOCCN(CCCCCCCCCCCCCCN4CCOCCOCCN(Cc5ccccc5)CCOCCOCC4)CCOCCOCC3)CCOCCOCC2)cc1; organism = Staphylococcus aureus; test = propidium iodide uptake; system = 1199B; conditions = 1 µM or 2 µM; endpoint = membrane permeability; result = increased
SMILES = N#Cc1ccc(-c2ccc(-c3cccs3)o2)cc1; organism = Salmonella typhimurium; test = mutagenicity, Ames test; system = TA1535; conditions = 5 or 10 µM, 48 h, pH 7.4, lower tested concentration, with: rat liver S9 mix; endpoint = revertant colonies; result = 15.3 ± 4.2 colonies/plate
SMILES = Cc1cc(C#N)cc(C)c1Oc1nc(NC2CCN(Cc3ccc(S(N)(=O)=O)cc3)CC2)nc2ccccc12; organism = HIV-1; system = TZM-bl, NL4-3 wild type; scale = reference: CC50 over EC50; endpoint = selectivity index; result = > 142
SMILES = N#Cc1ccc(-c2ccc(-c3cccs3)s2)cc1; organism = Salmonella typhimurium; test = mutagenicity, Ames test; system = TA1535; conditions = 5 or 10 µM, 48 h, pH 7.4, lower tested concentration, with: rat liver S9 mix; endpoint = revertant colonies; result = 15.3 ± 1.5 colonies/plate
SMILES = CC(=NNC(=N)N)c1nnn(-c2ccc(C#CC3(O)CCCCC3)cc2)c1C; organism = Staphylococcus aureus; system = Caco-2, MRSA NRS384 USA300; scale = reference: Caco-2 IC50 over MIC; endpoint = selectivity index; result = 5.5
SMILES = Nc1ccn(C[C@@H](CO)OCP(=O)(O)OCCCS(=O)(=O)CCCCCCCCCCCCCC2CCC2)c(=O)n1; organism = human adenovirus C6; system = tonsil 99, Syrian hamster, male, immunosuppressed; conditions = oral, 10 vs 0.3 mg/kg/day once daily; endpoint = therapeutic window; result = ~30 fold
SMILES = N=C(N)c1ccc(-c2ccc(-c3cccs3)o2)cc1; organism = Salmonella typhimurium; test = mutagenicity, Ames test; system = TA1535; conditions = 10 or 20 µM, 48 h, pH 7.4, higher tested concentration, with: rat liver S9 mix; endpoint = revertant colonies; result = 13.7 ± 1.5 colonies/plate
SMILES = COc1ccc(CNc2nc(N3CCC[C@H]3CO)ncc2C(=O)NN)cc1Cl; organism = Salmonella typhimurium; system = TA102; conditions = 125 µg/plate, with: rat liver S9; endpoint = revertant count; result = 262 ± 7
SMILES = C=CC(=O)Nc1cccc(Cn2ncc3cnc(Nc4cnn(CCOC)c4)nc32)c1; organism = Salmonella typhimurium; test = Ames test; system = TA100; conditions = concentration not given, with and without S9; endpoint = mutagenicity; result = negative
SMILES = C/C(=N\OCCCN1CCCCC1)c1ccc(C(F)(F)F)cc1; organism = Salmonella typhimurium; system = TA98 and TA100; conditions = concentration not given; endpoint = mutagenicity; result = negative
SMILES = N#Cc1ccc(-c2ccc(-c3ccco3)o2)nc1; organism = Salmonella typhimurium; test = mutagenicity, Ames test; system = TA1535; conditions = 10 or 20 µM, 48 h, pH 7.4, higher tested concentration, with: rat liver S9 mix; endpoint = revertant colonies; result = 23.7 ± 2.5 colonies/plate
SMILES = COc1ccc(CNc2nc(N3CCC[C@H]3CO)ncc2C(=O)NNC(=O)c2cnc(N3CCC[C@H]3CO)nc2NCc2ccc(OC)c(Cl)c2)cc1Cl; organism = Salmonella typhimurium; system = TA97a; conditions = 250 µg/plate, 48 h, with: rat liver S9; endpoint = revertant count; result = 161 ± 31
SMILES = N=C(N)c1ccc(-c2ccc(-c3cccs3)o2)nc1; organism = Salmonella typhimurium; test = mutagenicity, Ames test; system = TA1535; conditions = 5 or 10 µM, 48 h, pH 7.4, lower tested concentration, with: rat liver S9 mix; endpoint = revertant colonies; result = 30.3 ± 3.5 colonies/plate
SMILES = CCC(=O)N(C)c1ccc(Cl)c(Cl)c1; organism = Salmonella typhimurium; test = Ames test; system = TA1535; conditions = 0.50 mg/plate, with rat liver S9; endpoint = revertant colonies; result = 7 ± 3.8 revertants/plate
SMILES = CCOC(=O)c1c(-c2ccccc2)oc2ccc(NS(=O)(=O)c3ccc(F)cc3)cc12; organism = porcine epidemic diarrhea virus; system = Vero; scale = reference: CC50 over EC50; endpoint = selectivity index; result = 5
SMILES = N#Cc1ccc(-c2ccc(-c3cccs3)o2)nc1; organism = Salmonella typhimurium; test = mutagenicity, Ames test; system = TA1535; conditions = 10 or 20 µM, 48 h, pH 7.4, higher tested concentration, with: rat liver S9 mix; endpoint = revertant colonies; result = 34 ± 3 colonies/plate
SMILES = Cc1cc(C)cc(S(=O)(=O)c2c(C(=O)NC3CC4(C3)CN(Cc3n[nH]c(=O)[nH]3)C4)[nH]c3ccc(Cl)cc23)c1; organism = HIV-1; system = IIIB; scale = reference: CC50 over EC50; endpoint = selectivity index; result = 12400
SMILES = Cc1cc(C#N)cc(C)c1Oc1nc(NC2CCN(Cc3ccc(C(N)=O)cc3)CC2)nc2ccccc12; organism = HIV-1; system = TZM-bl, NL4-3 wild type; scale = reference: CC50 over EC50; endpoint = selectivity index; result = > 136
SMILES = CC[C@H](C)[C@H](NC(=O)[C@@H](CCCNC(=N)N)NC(=O)[C@H](CCCNC(=N)N)NC(=O)[C@H](CCCN)NC(=O)[C@H](Cc1c[nH]c2ccccc12)NC(=O)[C@H](CCCNC(=N)N)NC(=O)[C@@H]1CCCN1C(=O)[C@H](CCCNC(=N)N)NC(=O)[C@@H]1CCCN1C(=O)[C@H](CC(C)C)NC(=O)[C@H](Cc1ccc(O)cc1)NC(=O)[C@@H]1CCCN1C(=O)[C@@H]1CCCN1C(=O)[C@H](CCCCN)NC(=O)[C@H](CC(=O)O)NC(=O)[C@@H](N)C(C)C)C(=O)N[C@@H](Cc1ccc(O)cc1)C(=O)N[C@@H](CC(N)=O)C(=O)N[C@H](CCCNC(=N)N)C(N)=O; organism = Staphylococcus aureus; test = LC-MS; system = cell pellet; conditions = 8 µg/mL, 30 min; scale = reference: added; endpoint = uptake; result = 23%
SMILES = N#Cc1ccc(-c2ccc(-c3ccco3)o2)cc1; organism = Salmonella typhimurium; test = mutagenicity, Ames test; system = TA1535; conditions = 5 or 10 µM, 48 h, pH 7.4, lower tested concentration, with: rat liver S9 mix; endpoint = revertant colonies; result = 13.3 ± 1.5 colonies/plate
SMILES = N=C(N)NCCC[C@@H]1NC(=O)[C@H](CCCNC(=N)N)NC(=O)[C@H](CCCNC(=N)N)NC(=O)[C@H](CCCNC(=N)N)NC(=O)[C@H](Cc2c[nH]c3ccccc23)NC(=O)[C@H](CCCNC(=N)N)NC(=O)[C@H](CCCNC(=N)N)NC(=O)[C@@H](N)CCCCn2cc(nn2)C[C@@H](C(N)=O)NC1=O; organism = Staphylococcus aureus; test = broth microdilution; system = ATCC 25923; conditions = 2 h, 37 °C, with: 12.5% fetal bovine serum preincubation; endpoint = MIC; result = 15.6 µg/mL (≈ 11.2 µM)
